Measurements gathered from unrelated publications.
± gives the spread as reported.
SCN9A: Sodium channel protein type 9 subunit alpha (SCN9A, Homo sapiens, UniProt Q15858)
Chain of UniProt Q15858 (whole entry, looked up): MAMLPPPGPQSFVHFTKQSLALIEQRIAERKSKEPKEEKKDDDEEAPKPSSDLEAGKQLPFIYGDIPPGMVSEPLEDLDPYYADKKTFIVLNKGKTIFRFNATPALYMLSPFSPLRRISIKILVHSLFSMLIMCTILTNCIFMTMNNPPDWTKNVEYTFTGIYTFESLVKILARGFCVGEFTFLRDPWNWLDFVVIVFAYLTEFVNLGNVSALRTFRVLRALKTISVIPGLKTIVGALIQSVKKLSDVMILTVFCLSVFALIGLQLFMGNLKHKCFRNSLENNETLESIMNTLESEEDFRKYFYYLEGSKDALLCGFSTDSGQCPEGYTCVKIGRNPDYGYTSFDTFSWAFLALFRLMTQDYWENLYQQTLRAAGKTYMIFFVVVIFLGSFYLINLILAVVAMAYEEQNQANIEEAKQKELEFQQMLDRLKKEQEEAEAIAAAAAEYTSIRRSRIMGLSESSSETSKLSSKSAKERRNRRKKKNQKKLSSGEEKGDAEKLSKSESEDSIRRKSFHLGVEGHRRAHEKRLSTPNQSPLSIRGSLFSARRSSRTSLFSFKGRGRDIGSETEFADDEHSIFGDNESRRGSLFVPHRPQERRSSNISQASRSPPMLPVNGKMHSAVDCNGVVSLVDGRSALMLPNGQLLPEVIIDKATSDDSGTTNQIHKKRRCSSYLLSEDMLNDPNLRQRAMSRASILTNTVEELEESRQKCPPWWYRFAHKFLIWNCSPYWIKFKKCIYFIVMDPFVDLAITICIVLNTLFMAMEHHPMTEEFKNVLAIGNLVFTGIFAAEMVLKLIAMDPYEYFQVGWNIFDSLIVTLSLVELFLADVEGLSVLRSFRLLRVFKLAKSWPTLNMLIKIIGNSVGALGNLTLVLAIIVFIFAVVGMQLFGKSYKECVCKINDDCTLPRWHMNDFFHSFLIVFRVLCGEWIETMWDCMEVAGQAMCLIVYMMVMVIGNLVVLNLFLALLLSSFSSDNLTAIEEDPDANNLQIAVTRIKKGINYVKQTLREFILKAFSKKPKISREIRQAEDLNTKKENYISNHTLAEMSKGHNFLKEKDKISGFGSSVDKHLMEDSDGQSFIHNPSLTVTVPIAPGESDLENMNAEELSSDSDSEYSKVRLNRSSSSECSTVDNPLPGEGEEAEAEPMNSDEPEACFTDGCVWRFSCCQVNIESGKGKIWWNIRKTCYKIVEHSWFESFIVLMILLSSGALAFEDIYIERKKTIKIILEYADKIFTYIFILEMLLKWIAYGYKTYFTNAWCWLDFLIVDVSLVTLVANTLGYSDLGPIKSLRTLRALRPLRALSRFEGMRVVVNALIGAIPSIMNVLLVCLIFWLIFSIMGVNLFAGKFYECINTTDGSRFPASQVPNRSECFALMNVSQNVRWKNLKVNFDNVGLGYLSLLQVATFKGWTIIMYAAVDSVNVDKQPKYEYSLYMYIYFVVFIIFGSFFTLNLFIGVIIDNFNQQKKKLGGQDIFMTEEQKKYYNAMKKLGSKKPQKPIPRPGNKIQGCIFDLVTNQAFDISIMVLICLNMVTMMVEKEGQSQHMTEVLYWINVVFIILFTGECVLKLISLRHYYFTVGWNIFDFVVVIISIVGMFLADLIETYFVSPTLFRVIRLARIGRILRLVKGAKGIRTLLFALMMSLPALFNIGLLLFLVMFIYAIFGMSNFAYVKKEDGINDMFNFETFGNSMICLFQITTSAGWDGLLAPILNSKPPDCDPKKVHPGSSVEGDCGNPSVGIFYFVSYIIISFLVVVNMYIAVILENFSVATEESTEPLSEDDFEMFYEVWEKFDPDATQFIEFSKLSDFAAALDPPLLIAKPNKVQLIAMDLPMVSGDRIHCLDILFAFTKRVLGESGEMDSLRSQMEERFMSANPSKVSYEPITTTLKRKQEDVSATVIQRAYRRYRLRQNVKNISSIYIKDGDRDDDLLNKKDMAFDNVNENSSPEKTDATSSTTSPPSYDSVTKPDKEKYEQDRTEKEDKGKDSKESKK
MAL12: Alpha-glucosidase MAL12 (MAL12, Saccharomyces cerevisiae S288c, UniProt P53341)
Chain of UniProt P53341 (whole entry, looked up): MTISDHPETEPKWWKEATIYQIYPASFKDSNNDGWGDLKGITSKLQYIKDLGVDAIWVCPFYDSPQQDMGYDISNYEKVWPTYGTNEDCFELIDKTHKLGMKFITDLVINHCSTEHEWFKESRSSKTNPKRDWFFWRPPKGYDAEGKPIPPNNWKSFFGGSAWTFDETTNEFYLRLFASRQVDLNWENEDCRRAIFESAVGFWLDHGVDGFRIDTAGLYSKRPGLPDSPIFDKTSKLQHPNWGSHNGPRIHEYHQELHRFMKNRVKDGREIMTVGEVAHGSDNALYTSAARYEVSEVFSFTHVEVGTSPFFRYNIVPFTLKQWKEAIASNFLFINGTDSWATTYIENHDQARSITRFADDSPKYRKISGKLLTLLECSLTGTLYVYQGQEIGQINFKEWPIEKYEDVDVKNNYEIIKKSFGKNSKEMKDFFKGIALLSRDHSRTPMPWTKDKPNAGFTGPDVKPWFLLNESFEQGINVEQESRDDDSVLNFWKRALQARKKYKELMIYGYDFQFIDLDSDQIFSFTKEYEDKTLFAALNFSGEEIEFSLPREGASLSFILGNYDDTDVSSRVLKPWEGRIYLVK
P2rx7: P2X purinoceptor 7 (P2rx7, Rattus norvegicus, UniProt Q64663)
Chain of UniProt Q64663 (whole entry, unmodified, looked up): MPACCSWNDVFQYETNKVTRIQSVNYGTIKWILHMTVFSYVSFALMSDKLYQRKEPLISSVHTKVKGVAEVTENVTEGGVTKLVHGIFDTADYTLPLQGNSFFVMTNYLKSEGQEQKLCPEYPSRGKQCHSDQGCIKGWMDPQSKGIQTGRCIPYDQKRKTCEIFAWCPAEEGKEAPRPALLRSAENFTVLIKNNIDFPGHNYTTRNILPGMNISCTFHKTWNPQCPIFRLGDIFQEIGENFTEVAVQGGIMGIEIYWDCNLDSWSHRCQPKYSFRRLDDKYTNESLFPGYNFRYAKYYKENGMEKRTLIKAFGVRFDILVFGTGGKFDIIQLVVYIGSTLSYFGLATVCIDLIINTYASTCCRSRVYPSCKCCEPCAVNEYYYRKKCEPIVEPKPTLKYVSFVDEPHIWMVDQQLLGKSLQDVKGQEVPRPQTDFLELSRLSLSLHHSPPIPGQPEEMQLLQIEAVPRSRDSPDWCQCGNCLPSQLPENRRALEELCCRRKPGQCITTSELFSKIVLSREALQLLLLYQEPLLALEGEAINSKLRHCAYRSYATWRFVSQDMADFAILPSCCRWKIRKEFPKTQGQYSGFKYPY
WWOX WW1 domain: WW domain-containing oxidoreductase, WW1 domain (WWOX, Homo sapiens, UniProt Q9NZC7)
Chain of UniProt Q9NZC7 (whole entry, looked up): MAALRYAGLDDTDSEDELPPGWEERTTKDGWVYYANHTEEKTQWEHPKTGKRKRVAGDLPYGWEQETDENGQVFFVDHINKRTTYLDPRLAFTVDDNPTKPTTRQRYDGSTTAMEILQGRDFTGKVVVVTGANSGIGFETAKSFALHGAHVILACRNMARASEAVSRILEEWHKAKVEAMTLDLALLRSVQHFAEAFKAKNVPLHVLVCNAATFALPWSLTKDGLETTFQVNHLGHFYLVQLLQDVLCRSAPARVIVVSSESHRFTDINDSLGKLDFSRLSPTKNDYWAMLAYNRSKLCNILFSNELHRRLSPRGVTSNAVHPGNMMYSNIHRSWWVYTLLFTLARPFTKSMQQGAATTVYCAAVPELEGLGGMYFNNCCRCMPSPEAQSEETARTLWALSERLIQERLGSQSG
Chain of UniProt P33033 (whole entry, looked up): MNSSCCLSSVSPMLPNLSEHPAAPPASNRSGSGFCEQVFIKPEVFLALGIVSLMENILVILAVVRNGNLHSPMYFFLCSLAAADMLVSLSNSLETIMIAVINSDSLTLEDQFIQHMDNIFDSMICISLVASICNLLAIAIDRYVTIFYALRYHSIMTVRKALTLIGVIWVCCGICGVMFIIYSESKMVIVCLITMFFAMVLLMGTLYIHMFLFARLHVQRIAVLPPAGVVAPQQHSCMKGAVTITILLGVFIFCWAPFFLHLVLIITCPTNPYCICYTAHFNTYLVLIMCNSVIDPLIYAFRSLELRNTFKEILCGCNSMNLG
Chain of UniProt Q60603 (whole entry, looked up): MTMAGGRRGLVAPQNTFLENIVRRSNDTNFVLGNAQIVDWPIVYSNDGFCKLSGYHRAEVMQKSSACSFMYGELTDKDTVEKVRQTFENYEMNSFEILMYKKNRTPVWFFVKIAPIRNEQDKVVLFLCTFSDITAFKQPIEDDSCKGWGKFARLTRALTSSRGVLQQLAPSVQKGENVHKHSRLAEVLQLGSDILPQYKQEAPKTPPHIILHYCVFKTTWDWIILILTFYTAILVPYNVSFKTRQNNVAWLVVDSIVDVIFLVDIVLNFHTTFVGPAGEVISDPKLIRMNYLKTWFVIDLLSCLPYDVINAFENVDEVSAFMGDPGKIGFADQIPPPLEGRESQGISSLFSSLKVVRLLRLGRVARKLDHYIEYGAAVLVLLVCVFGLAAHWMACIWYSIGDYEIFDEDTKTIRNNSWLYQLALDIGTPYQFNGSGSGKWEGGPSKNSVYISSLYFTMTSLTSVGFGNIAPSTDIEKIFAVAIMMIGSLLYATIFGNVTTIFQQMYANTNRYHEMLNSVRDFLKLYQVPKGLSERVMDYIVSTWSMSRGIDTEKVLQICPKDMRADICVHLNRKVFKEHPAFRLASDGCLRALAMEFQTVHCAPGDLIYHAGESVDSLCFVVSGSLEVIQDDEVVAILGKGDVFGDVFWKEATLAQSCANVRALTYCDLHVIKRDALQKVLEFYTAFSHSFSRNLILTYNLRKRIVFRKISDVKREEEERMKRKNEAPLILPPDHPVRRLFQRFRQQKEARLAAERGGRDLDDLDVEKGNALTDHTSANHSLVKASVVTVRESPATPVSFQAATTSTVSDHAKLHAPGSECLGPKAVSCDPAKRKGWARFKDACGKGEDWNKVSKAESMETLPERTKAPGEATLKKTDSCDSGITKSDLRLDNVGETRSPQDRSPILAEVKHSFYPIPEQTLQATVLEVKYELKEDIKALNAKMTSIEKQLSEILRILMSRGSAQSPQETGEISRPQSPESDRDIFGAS
Chain of UniProt P69905 (whole entry, looked up): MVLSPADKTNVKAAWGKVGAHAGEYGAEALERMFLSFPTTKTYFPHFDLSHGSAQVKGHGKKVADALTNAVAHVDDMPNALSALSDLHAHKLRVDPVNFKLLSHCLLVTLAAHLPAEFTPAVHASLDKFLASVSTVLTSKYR

Molecule | target | assay | test system | setting | how to read | endpoint | value
COC(=O)c1scc(C)c1NC(=O)CN1CCN(C(C)C)CC1 | SCN9A | cell membrane chromatography |  |  | higher = stronger binding | capacity factor k′ | 3
CC1=C(C(=O)OCc2ccccc2)C(c2ccc(-c3ccccc3)cc2)NC(=S)N1CCCCCc1nnn[nH]1 (centres unmarked) | Heat shock 70 kDa protein 1A, with Hdj2 (HSPA1A, Homo sapiens, UniProt P0DMV8) | ATPase activity, inhibitor |  | 100 µM, Hsp40-stimulated activity, together with: Hdj2 Hsp70:Hsp40 1:0.5 | baseline: DMSO, negative means inhibition | fold change in activity | -1.7 fold
O=c1cc(-c2ccccc2)oc2cc(O)ccc12 | MAL12 | enzyme activity, inhibitor |  | 10 µM, together with: p-nitrophenyl α-D-glucopyranoside |  | inhibition | < 1%
Ac-RRWRDGIKIYNLLF-NH2 (N-acetyl, C-amide) | Dual specificity mitogen-activated protein kinase kinase 6 (MAP2K6, Homo sapiens, UniProt P52564, S207E/T211E) | substrate, HPLC and MALDI-TOF MS | peptide | 100 to 500 µM, 40 h, pH 7.5, room temperature, together with: ATP 1 mM |  | phosphorylation | not detected
COc1cc(-c2cnc3c(N4CCOCC4)snc3c2)cc(OC)c1OC | panel of 456 kinases | DiscoverX scan |  | 10 µM, below 10% of control |  | number of kinases bound | 7
O=C(O)[C@H]1O[C@@H](O[C@H]2c3cc4ccc5cccc6c7ccccc7c(c3C=C[C@@H]2O)c4c56)[C@H](O)[C@@H](O)[C@@H]1O (relative stereo) | UDP-glucuronosyltransferase 1A7 (UGT1A7, Homo sapiens, UniProt Q9HAW7) | glucuronidation, substrate | UGT-expressing HEK293 homogenate | normalized to UGT expression |  | kcat | 0.00015 ± 5e-05 s⁻¹
BzATP | P2rx7 | ion current, whole-cell patch clamp | HEK293, transfected | together with: after agonist washout, Ca2+ medium |  | decay time constant τ1 | 2.8 ± 0.5 s
CCCCCCCCC(=O)N[C@H]1CCNC1=O | N-acylethanolamine-hydrolyzing acid amidase (NAAA, Homo sapiens, UniProt Q02083) | enzyme activity, inhibitor, fluorogenic PAMCA hydrolysis |  | pH 4.5, together with: 5 µM PAMCA |  | IC50 | inactive
COc1cc2oc(-c3ccc(O)cc3O)c(CC=C(C)C)c(=O)c2c(O)c1/C=C/C(C)C | Sialidase A (nanA, Streptococcus pneumoniae, UniProt P62575) | neuraminidase activity, fluorescence |  |  | baseline: cpd over oseltamivir | IC50 ratio | ~10 fold
COc1ccc(-c2cc(=O)c3c(O)cc(OC)cc3o2)cc1 | MAL12 | enzyme activity, inhibitor |  | 10 µM, together with: p-nitrophenyl α-D-glucopyranoside |  | inhibition | < 1%
CC(C)=CC[C@@H](O)C1=CC(=O)c2c(O)ccc(O)c2C1=O | Alpha-synuclein, oligomers (SNCA, Homo sapiens, UniProt P37840) | oligomer-vesicle binding, FIDA |  | 5 µM, together with: 150 nM oligomers, 50 µM DOPG liposomes | baseline: untreated | reduction in bound oligomers | 15 to 20%
COc1cc(-c2cc(=O)c3ccc(O)c(OC)c3o2)cc(O)c1OC | MAL12 | enzyme activity, inhibitor, absorbance |  | 10 µM |  | inhibition | 3%
COC(=O)c1scc(C)c1NC(=O)C(C)N1CCN(C)C(C)C1 (centres unmarked) | SCN9A | cell membrane chromatography |  |  | higher = stronger binding | capacity factor k′ | 74.2
CC(C)[C@H](NC(=O)[C@@H](N)[C@@H](C)O)C(=O)N[C@@H](C)C(=O)N1CCC[C@H]1C(=O)N1CCC[C@H]1C(=O)N1CCC[C@H]1C(=O)N1CCC[C@H]1C(=O)N[C@@H](Cc1ccc(O)cc1)C(=O)N[C@@H](CCCNC(=N)N)C(=O)N[C@@H](Cc1c[nH]cn1)C(=O)N[C@@H](CCCNC(=N)N)C(=O)N[C@@H](CC(N)=O)C(=O)O | WWOX WW1 domain | binding to WW1 domain, isothermal titration calorimetry |  | pH 7.0, 25 °C |  | binding free energy ΔG | -5.22 ± 0.07 kcal/mol
CC(=O)N[C@@H](Cc1ccccc1)C(=O)N[C@H](Cc1ccc(-c2ccccc2)cc1)C(=O)N[C@@H](CCCNC(=N)N)C(=O)N[C@@H](Cc1c[nH]c2ccccc12)C(N)=O | Melanocortin receptor 3 (Mus musculus, UniProt P33033) | receptor activity, agonist, cell-based |  | up to 100 µM, Schild antagonism analysis |  | agonist and antagonist activity | inactive
COc1cc2c(cc1OC)-c1c/c(=N\c3c(C)cc(C)cc3C)n(C)c(=O)n1CC2 | Dual specificity calcium/calmodulin-dependent 3',5'-cyclic nucleotide phosphodiesterase 1C (PDE1C, Homo sapiens, UniProt Q14123) | cGMP hydrolysis, inhibitor |  | up to 50 µM |  | IC50 | inactive
CSCC[C@H](NC(=O)[C@@H]1CCCN1C(=O)[C@@H](NC(=O)[C@H](Cc1ccc(O)cc1)NC(=O)[C@H](C)NC(=O)[C@@H]1CCCN1C(=O)[C@@H]1CCCN1C(=O)[C@@H]1CCCN1C(=O)[C@H](CO)NC(=O)[C@H](Cc1c[nH]cn1)NC(=O)CN)[C@@H](C)O)C(=O)N[C@@H](CO)C(=O)O | WWOX WW1 domain | binding, ITC |  | pH 7.0, 25 °C |  | ΔG | -4.7 ± 0.07 kcal/mol
CC[N+](CC)(CC)CC | Kcnma1 (Mus musculus, UniProt Q08460) | K+ current, blocker, outside-out patch, oocytes |  | pH 8.5, state-independent block fit, together with: Ca2+ 300 µM |  | charge movement | 0.23 ± 0.02 e
COC(=O)c1scc(C)c1NC(=O)C(C)N1CCS(=O)(=O)CC1 (centres unmarked) | SCN9A | cell membrane chromatography |  |  | higher = stronger binding | capacity factor k′ | 0
CC(C)C[C@H](NC(=O)[C@@H](NC(=O)[C@@H](N)[C@@H](C)O)C(C)C)C(=O)N1CCC[C@H]1C(=O)N1CCC[C@H]1C(=O)N1CCC[C@H]1C(=O)N[C@@H](C)C(=O)N[C@@H](Cc1ccc(O)cc1)C(=O)N[C@@H](CCCNC(=N)N)C(=O)N[C@@H](Cc1c[nH]cn1)C(=O)N[C@@H](CCCNC(=N)N)C(=O)N[C@@H](CC(N)=O)C(=O)O | WWOX WW1 domain | binding to WW1 domain, isothermal titration calorimetry |  | pH 7.0, 25 °C |  | entropy term TΔS | 1.21 ± 0.37 kcal/mol
C[N+](C)(C)C[C@@H](O)CC(=O)[O-] | Organic cation/carnitine transporter 2 (SLC22A5, Homo sapiens, UniProt O76082) | transporter uptake, inhibitor |  | 5 µM |  | inhibition | 24.4%
COC(=O)c1scc(C)c1NC(=O)C(C)N1CCNCC1 (centres unmarked) | SCN9A | cell membrane chromatography |  |  | higher = stronger binding | capacity factor k′ | 59.2
Nc1ncnc2c1ncn2[C@@H]1O[C@H](COP(=O)(O)OP(=O)(O)OP(=O)(O)O)[C@@H](O)[C@H]1O | P2rx7 | ion current, whole-cell patch clamp | HEK293, transfected | together with: after agonist washout, Ca2+ medium |  | decay time constant τ2 | 2.1 ± 0.2 s
CCCOCc1ccc(C=O)o1 | Hemoglobin subunit alpha, with sickle beta chain (HBA1, Homo sapiens, UniProt P69905) | oxygen affinity | sickle red cell lysate | 2 mM | baseline: untreated | P50 change | 44 ± 9.7%
CC(C)C1CCCC(C(C)C)C1O (centres unmarked) | Potassium/sodium hyperpolarization-activated cyclic nucleotide-gated channel 1 (Hcn1, Mus musculus, UniProt O88704) | V1/2 shift, two-electrode voltage clamp | Xenopus oocytes |  | baseline: cyclohexanol over corresponding phenol | decrease in efficacy | > 2 fold
COC(=O)c1scc(C)c1NC(=O)C(C)N1CCN(C)CC1 (centres unmarked) | SCN9A | cell membrane chromatography |  |  | higher = stronger binding | capacity factor k′ | 83.2
CC(C)C[C@H](NC(=O)[C@@H](NC(=O)[C@@H](N)[C@@H](C)O)C(C)C)C(=O)N1CCC[C@H]1C(=O)N1CCC[C@H]1C(=O)N1CCC[C@H]1C(=O)N1CCC[C@H]1C(=O)N[C@@H](Cc1ccc(O)cc1)C(=O)N[C@@H](CCCNC(=N)N)C(=O)N[C@@H](C)C(=O)N[C@@H](CCCNC(=N)N)C(=O)N[C@@H](CC(N)=O)C(=O)O | WWOX WW1 domain | binding to WW1 domain, isothermal titration calorimetry |  | pH 7.0, 25 °C |  | binding free energy ΔG | -5.2 ± 0.07 kcal/mol
COC(=O)c1scc(C)c1NC(=O)C(C)N1CCN(C(C)(C)C)CC1 (centres unmarked) | SCN9A | cell membrane chromatography |  |  | higher = stronger binding | capacity factor k′ | 0.2
O=c1cc(-c2ccc(O)c(O)c2)oc2cc(O)cc(O)c12 | Kcnh1 (Mus musculus, UniProt Q60603) | inside-out patch clamp | Xenopus oocytes | 10 µM |  | V1/2 shift | -11 ± 2.5 mV

A few entries again:
Molecule | target | assay | test system | setting | how to read | endpoint | value
CC(C)[C@H](NC(=O)[C@@H](N)[C@@H](C)O)C(=O)N[C@@H](C)C(=O)N1CCC[C@H]1C(=O)N1CCC[C@H]1C(=O)N1CCC[C@H]1C(=O)N1CCC[C@H]1C(=O)N[C@@H](Cc1ccc(O)cc1)C(=O)N[C@@H](CCCNC(=N)N)C(=O)N[C@@H](Cc1c[nH]cn1)C(=O)N[C@@H](CCCNC(=N)N)C(=O)N[C@@H](CC(N)=O)C(=O)O | WWOX WW1 domain | binding to WW1 domain, isothermal titration calorimetry |  | pH 7.0, 25 °C |  | binding free energy ΔG | -5.22 ± 0.07 kcal/mol
CC(=O)N[C@@H](Cc1ccccc1)C(=O)N[C@H](Cc1ccc(-c2ccccc2)cc1)C(=O)N[C@@H](CCCNC(=N)N)C(=O)N[C@@H](Cc1c[nH]c2ccccc12)C(N)=O | Melanocortin receptor 3 (Mus musculus, UniProt P33033) | receptor activity, agonist, cell-based |  | up to 100 µM, Schild antagonism analysis |  | agonist and antagonist activity | inactive
